Measurements collected from several papers.
Numbered parts are unrelated; each lists some results of a single study.

Sample 1 — method: protein binding microarray; form: double-stranded DNA, one strand shown; medium: in vitro; concentration: not given; baseline: not given; direction: higher = stronger binding; quantity: E-score
Target: Histone acetyltransferase KAT6A, winged helix 1, GST fusion (KAT6A, Homo sapiens, UniProt Q92794, residues 1-85)
Setting: 8-mer, flanks averaged, mean of 2 arrays, mostly near background
Residues (chain): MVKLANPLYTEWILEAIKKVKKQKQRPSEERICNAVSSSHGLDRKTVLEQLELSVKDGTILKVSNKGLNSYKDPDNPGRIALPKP
AAAGAAAA: -0.124
AGGTAGAG: -0.147
ATATCGGG: 0.123
ATGAAAGG: -0.0786
AGCTCTCG: -0.0269
TACCTGCA: 0.0082
TAAACGCA: 0.0793
CTTAGAAA: -0.118
TCCCCAGA: -0.26
AGTGTCTG: -0.235
AAAGATGT: -0.101
ACGTATTA: -0.000175
ACCGGAGA: 0.0649
CTGTAGGC: -0.0723
ATGGTTTA: -0.0184
CTTGAGGA: -0.107
AAAAAGGG: 0.0183
AGTATGTA: -0.103
AATTTGCC: -0.128
CTCCCTTA: -0.224
AGTTTCGC: -0.0729
ACCTTCAA: -0.103
CCCCTTAC: 0.117

Sample 2 — method: protein-binding microarray; form: double-stranded DNA, one strand shown; medium: in vitro; concentration: 250 nM; setting: 60-bp whole probe; added: salmon DNA 0.4 mg/ml; baseline: random background probes; direction: higher = stronger binding; quantity: log fluorescence; all sequences stand within: GCCTAGCAC … GTCTTGATTCGCTTGACGCTGCTG
Target: Interferon regulatory factor 7, full length, phosphomimetic (IRF7, Homo sapiens, UniProt Q92985, residues 1-503, S101K/S471D/S472D/S475D/S476D/S477D/S483D/S484D/S487D)
Chain of UniProt Q92985 (whole entry, unmodified, looked up): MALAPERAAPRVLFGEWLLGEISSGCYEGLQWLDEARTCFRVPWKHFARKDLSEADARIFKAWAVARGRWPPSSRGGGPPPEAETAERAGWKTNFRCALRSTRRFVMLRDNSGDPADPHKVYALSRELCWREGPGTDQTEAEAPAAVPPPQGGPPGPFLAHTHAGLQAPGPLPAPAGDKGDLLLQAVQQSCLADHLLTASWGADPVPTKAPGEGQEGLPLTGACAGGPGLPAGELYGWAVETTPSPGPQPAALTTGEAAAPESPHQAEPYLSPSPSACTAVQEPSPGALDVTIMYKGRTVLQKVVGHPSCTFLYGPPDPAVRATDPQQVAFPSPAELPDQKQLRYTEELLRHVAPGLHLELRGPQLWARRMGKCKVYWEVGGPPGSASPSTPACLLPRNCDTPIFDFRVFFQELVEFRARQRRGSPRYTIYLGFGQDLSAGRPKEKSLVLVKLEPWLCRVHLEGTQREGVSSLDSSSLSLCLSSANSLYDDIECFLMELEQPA
TTAGGTTTCGACACTGGGTAAGTGCTA: 3.88 z-score
TTAGAACTGGGGTTTCGTTTAGTGCTA: 6.01 z-score
CTAGGTATCCTTCTCCTTTAGTGCTAG: 0.737 z-score
TTAGAGATCGGGACTGGATTAGTGCTA: -0.0865 z-score
TTAGGACTAGGTATCGGTTAGTGCTAG: 1.35 z-score
TCAATTATATCTGTGTTACTGTGCTAG: 0.439 z-score
TCAGTTACGGAATTTCCCACTGTGCTA: 1.17 z-score
GGCGGACTGCTACTGCTGACGTGCTAG: -1.14 z-score
TTAGGTATCGACTTTCGCTTAGTGCTA: 2.07 z-score
GACGATTTCAAACTGGAGACGTGCTAG: 0.0366 z-score
TTAGAACTGGGGACTGTATTAGTGCTA: -0.245 z-score
GACGGACTGCGTCTCGGGACGTGCTAG: -0.528 z-score
TTAGGTTTCAACTATCGGTTAGTGCTA: 0.672 z-score
GACGGACTGAACTTTCGGGACGTGCTA: -0.289 z-score
TTGTGTTTGTCCCTATTTAAGTGCTAG: 1.34 z-score
TCATATATGACAATGATACTGTGCTAG: 0.573 z-score
ATAGATTTCGGGTATCGATTAGTGCTA: 1.96 z-score
TTAGGACGGGGGTATCGGTTAGTGCTA: 2.53 z-score
CACGGTTTCGGTTTCGGGACGTGCTAG: 14.4 z-score

Sample 3 — method: RNA Bind-n-Seq; form: RNA; medium: in vitro; concentration: 200 nM; setting: whole 134-nt RNA, ends assumed; added: 150 mM LiCl; baseline: input library; direction: higher = stronger binding; quantity: log2 enrichment; library: 7-deaza-guanosine replaces G
Target: Ras GTPase-activating protein-binding protein 1, full length (G3BP1, Homo sapiens, UniProt Q13283)
Chain of UniProt Q13283 (whole entry, looked up): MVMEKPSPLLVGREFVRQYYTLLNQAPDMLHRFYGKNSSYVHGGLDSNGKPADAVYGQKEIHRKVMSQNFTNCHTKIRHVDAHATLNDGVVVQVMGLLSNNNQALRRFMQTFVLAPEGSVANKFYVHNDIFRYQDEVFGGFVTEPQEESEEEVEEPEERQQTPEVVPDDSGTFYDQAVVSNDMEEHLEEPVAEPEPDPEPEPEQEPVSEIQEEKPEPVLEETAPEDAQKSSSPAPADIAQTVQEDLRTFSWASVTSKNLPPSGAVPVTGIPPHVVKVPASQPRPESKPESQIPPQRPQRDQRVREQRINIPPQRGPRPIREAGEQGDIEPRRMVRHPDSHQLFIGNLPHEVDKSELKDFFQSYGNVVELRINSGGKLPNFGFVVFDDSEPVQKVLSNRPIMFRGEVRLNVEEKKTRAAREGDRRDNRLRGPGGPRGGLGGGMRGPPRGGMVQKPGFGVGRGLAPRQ
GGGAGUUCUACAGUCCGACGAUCUGGCCCUGGUGGCAUGCGGGGAGGAAGAGGUGGCCUCAUGGAUCGUGGUGGUACCGGUGGAAUGUUCAGAGGUGGCCGUGGUGGAGACAGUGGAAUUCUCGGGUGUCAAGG: 0.364
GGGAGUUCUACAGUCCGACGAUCUCAAGUCCUGUGCUACACAUCGUAUGUACCGAAUCGGGCCCGGCCCGGGGCCCGGAAAGUAUUAUGUUACGCCGUUCGGAUCUGCACUUCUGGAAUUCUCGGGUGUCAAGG: -0.229
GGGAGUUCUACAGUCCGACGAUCGCAGGAAGUAAAAACAAAUGGAAAUGCUUCGGAUAGUGGCAGGGGUGGGGGUUGCUAAGGAAAGGGAGGGAUGGGAGUGGGUAAAGAGUUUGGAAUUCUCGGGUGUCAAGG: -0.077
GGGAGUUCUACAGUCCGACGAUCACCAUGCACGUGGGCAUCUUUGGGAAGUGGGGCAAGGGGGGGAUAGGGAGGGGGGUAACACUUUGGGAACAGGUGGUCCCAGGUCGUUUCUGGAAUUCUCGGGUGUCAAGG: 0.0496
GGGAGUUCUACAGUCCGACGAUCCCUGUGCUACACAUCGUAUGUACCGAAUCGGGCCCCCCGGGGCCCCCCGGGGCCCCCCGGGAAAGUAUUAUGUUACGCCGUUCGGAUCUGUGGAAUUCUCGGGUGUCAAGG: -2.09
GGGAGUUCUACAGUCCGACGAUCCCUGUGCUACACAUCGUAUGUACCGAAUCGGGGAAAAAAAGGGGUGGGGAAAAAAAGGGGAAAGUAUUAUGUUACGCCGUUCGGAUCUGCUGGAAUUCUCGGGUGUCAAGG: -0.702
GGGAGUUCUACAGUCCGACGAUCCUGUGCUACACAUCGUAUGUACCGAAUCGGGUUUUUUUGGGUUUUUUUGGGUUUUUUUGGGGAAAGUAUUAUGUUACGCCGUUCGGAUCUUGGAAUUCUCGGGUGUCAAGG: 1.49
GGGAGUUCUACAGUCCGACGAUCCAAGUCCUGUGCUACACAUCGUAUGUACCGAAUCGGGGUUUGGGGUGGGGUGGGGAAAGUAUUAUGUUACGCCGUUCGGAUCUGCACUUCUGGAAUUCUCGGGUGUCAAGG: -0.00553

Sample 4 — method: competition protein-binding microarray; form: double-stranded DNA, one strand shown; medium: in vitro; concentration: 2 µM; added: Cbf1 competitor, 0.05 µM; direction: higher = stronger binding; quantity: fluorescence intensity
Target: Phosphate system positive regulatory protein PHO4, full length, GST-tagged (PHO4, Saccharomyces cerevisiae, UniProt P07270, residues 1-312)
Setting: whole 60-bp probe, lowest competitor level
Target sequence (chain): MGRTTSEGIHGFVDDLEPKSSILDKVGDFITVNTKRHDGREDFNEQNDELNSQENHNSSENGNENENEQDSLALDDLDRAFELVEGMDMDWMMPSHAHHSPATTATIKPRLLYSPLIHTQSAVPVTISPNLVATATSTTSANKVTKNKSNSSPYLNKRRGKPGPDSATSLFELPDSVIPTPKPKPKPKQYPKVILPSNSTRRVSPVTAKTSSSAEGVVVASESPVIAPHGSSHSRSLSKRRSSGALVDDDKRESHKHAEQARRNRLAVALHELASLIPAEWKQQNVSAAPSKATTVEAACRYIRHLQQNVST
GTCTTGTCTCATTGATACGTGGGTGTCCCCACTTCAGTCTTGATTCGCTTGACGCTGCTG: 6190 a.u.
GTCCCACCAGATTTGCACGTTTTGTTACCCCAGATAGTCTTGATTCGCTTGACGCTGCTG: 11300 a.u.
AAATTACTAAGTTGCTCGGTGGGTGACGCCGTATGAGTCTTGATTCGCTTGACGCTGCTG: 3100 a.u.
CTAACGAAGGTTTGGTGAGTGGGTGACAAGCCAAGTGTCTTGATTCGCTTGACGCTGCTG: 3970 a.u.
CATACCCAACCTTGGACTGTGGGTGAAGATATTTGTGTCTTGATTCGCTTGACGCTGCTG: 3600 a.u.
CTTCTGTAAATTTGTCACAATACTTGACGCGCCCCGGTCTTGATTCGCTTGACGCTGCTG: 3960 a.u.
CTTCTGTAAATTTATCACGTGTTTTGACGCGCCCCGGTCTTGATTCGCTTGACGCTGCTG: 15300 a.u.
CCCCATCGGACTCGGCACGATACTGGCGTTGAACGCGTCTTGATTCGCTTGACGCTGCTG: 6500 a.u.
AGACGTTGAGAAGTCCTCGTGAATAATCTGAATGACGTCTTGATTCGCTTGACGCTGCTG: 6830 a.u.
TTAACCCACAAACGTCAGGTGTACAATCGCAAATCCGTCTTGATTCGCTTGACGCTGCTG: 4020 a.u.
TTCCATCTTCTAAAGACCGTGTCTGCGCTTCCAGATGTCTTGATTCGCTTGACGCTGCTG: 7920 a.u.
ACAGCGTCGGCGGGCCACGTGCGGGAGGAGGGGCCGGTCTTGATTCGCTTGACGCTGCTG: 15300 a.u.
GGTGGAAAGTGAGTGCGCGTTTCTCGAGCCAAGTGCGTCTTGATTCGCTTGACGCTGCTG: 6130 a.u.
CGGGGTTAAGTTTGGGGGGTGGGTGGCTTGCAGCAGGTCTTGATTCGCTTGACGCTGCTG: 5490 a.u.
AATATTTCGTCGAGTCACGTAAGTGCAAGGTAATAAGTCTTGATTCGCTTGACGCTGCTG: 4650 a.u.
TGCCGTCGATGAGGACACGTTCAGATATGCCAAACAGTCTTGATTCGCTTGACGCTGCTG: 9660 a.u.

A few entries again (sample 3):
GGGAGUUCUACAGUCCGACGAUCUGGCCCUGGUGGCAUGCGGGGAGGAAGAGGUGGCCUCAUGGAUCGUGGUGGUACCGGUGGAAUGUUCAGAGGUGGCCGUGGUGGAGACAGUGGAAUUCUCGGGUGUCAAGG: 0.364
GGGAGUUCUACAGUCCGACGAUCUCAAGUCCUGUGCUACACAUCGUAUGUACCGAAUCGGGCCCGGCCCGGGGCCCGGAAAGUAUUAUGUUACGCCGUUCGGAUCUGCACUUCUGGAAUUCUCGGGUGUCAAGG: -0.229
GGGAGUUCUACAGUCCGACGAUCGCAGGAAGUAAAAACAAAUGGAAAUGCUUCGGAUAGUGGCAGGGGUGGGGGUUGCUAAGGAAAGGGAGGGAUGGGAGUGGGUAAAGAGUUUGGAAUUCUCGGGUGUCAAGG: -0.077
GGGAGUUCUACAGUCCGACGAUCACCAUGCACGUGGGCAUCUUUGGGAAGUGGGGCAAGGGGGGGAUAGGGAGGGGGGUAACACUUUGGGAACAGGUGGUCCCAGGUCGUUUCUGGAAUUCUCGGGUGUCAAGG: 0.0496
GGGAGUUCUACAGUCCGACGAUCCCUGUGCUACACAUCGUAUGUACCGAAUCGGGCCCCCCGGGGCCCCCCGGGGCCCCCCGGGAAAGUAUUAUGUUACGCCGUUCGGAUCUGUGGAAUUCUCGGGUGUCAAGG: -2.09
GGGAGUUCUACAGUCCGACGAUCCCUGUGCUACACAUCGUAUGUACCGAAUCGGGGAAAAAAAGGGGUGGGGAAAAAAAGGGGAAAGUAUUAUGUUACGCCGUUCGGAUCUGCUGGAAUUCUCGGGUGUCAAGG: -0.702
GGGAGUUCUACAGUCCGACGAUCCUGUGCUACACAUCGUAUGUACCGAAUCGGGUUUUUUUGGGUUUUUUUGGGUUUUUUUGGGGAAAGUAUUAUGUUACGCCGUUCGGAUCUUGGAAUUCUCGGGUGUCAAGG: 1.49
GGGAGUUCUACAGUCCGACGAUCCAAGUCCUGUGCUACACAUCGUAUGUACCGAAUCGGGGUUUGGGGUGGGGUGGGGAAAGUAUUAUGUUACGCCGUUCGGAUCUGCACUUCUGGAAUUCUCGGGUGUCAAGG: -0.00553
